Results pooled from the literature.
“And” joins repeats or separate records; there may be more than shown. Numbers after ± are the reported error.
Proteasome component C5/PSMB5: Proteasome component C5/PSMB5 (Homo sapiens, UniProt P20618+P28074)
UniProt P28074, sequence (whole entry, looked up): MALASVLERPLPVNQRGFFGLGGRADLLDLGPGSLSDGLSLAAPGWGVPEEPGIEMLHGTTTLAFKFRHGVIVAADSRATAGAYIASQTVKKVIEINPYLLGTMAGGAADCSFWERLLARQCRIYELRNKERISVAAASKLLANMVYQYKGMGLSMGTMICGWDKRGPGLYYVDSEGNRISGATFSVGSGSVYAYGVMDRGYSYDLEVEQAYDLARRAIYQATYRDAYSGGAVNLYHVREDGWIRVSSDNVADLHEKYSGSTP
UniProt P20618, sequence (whole entry, looked up): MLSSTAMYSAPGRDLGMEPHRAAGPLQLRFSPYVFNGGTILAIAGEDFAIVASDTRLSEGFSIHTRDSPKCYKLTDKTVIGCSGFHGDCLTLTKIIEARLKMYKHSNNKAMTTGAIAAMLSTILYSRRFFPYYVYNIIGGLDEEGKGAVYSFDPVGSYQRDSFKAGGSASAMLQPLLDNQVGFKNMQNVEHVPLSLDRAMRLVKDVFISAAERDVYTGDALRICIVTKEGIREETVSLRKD
UniProt Q01959, sequence (whole entry, looked up): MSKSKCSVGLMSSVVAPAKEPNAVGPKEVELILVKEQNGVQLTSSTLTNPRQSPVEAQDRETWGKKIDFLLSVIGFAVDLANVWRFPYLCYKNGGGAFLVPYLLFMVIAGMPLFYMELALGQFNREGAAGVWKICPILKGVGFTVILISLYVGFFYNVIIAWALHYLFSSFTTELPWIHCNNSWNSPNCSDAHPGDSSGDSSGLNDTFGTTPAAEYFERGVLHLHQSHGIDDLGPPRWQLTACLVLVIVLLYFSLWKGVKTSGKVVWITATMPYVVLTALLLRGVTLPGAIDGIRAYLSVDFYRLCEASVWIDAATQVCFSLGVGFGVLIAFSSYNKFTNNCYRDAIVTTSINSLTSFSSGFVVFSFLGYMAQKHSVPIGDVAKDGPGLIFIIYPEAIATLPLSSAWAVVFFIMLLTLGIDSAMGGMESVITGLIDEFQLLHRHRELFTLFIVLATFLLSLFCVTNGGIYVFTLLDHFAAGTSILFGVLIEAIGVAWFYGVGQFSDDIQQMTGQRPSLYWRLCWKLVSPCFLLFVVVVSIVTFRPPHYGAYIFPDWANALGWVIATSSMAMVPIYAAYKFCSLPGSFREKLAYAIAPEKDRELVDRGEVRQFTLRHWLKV
UniProt P30958, sequence (whole entry, looked up): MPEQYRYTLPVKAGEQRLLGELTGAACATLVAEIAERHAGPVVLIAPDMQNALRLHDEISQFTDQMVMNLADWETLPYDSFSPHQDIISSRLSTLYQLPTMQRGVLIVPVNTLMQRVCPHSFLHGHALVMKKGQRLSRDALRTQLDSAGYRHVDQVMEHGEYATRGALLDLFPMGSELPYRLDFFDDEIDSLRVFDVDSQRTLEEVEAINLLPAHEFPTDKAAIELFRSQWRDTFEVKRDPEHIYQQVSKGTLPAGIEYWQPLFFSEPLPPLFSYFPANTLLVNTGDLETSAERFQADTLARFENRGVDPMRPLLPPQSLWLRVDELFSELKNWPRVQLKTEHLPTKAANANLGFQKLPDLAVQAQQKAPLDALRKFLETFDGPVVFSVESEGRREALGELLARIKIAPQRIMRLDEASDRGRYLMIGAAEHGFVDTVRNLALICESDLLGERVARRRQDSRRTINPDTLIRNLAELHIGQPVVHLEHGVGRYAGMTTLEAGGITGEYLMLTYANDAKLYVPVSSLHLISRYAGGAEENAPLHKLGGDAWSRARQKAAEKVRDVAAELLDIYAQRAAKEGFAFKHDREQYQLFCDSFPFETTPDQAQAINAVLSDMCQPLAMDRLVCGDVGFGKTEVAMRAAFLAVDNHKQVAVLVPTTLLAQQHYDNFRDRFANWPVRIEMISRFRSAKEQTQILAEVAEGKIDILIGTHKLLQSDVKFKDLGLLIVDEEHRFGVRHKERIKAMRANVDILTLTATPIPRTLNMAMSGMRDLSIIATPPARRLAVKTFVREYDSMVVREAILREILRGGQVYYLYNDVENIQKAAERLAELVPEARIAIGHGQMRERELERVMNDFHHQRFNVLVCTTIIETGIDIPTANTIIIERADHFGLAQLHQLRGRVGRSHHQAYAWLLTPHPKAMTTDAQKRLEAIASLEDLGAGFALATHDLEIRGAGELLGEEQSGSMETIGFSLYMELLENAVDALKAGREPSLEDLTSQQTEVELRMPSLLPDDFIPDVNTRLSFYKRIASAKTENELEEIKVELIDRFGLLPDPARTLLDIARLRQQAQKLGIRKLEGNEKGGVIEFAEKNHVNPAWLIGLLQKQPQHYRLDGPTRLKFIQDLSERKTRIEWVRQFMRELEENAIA
UniProt P54756, sequence (whole entry, looked up): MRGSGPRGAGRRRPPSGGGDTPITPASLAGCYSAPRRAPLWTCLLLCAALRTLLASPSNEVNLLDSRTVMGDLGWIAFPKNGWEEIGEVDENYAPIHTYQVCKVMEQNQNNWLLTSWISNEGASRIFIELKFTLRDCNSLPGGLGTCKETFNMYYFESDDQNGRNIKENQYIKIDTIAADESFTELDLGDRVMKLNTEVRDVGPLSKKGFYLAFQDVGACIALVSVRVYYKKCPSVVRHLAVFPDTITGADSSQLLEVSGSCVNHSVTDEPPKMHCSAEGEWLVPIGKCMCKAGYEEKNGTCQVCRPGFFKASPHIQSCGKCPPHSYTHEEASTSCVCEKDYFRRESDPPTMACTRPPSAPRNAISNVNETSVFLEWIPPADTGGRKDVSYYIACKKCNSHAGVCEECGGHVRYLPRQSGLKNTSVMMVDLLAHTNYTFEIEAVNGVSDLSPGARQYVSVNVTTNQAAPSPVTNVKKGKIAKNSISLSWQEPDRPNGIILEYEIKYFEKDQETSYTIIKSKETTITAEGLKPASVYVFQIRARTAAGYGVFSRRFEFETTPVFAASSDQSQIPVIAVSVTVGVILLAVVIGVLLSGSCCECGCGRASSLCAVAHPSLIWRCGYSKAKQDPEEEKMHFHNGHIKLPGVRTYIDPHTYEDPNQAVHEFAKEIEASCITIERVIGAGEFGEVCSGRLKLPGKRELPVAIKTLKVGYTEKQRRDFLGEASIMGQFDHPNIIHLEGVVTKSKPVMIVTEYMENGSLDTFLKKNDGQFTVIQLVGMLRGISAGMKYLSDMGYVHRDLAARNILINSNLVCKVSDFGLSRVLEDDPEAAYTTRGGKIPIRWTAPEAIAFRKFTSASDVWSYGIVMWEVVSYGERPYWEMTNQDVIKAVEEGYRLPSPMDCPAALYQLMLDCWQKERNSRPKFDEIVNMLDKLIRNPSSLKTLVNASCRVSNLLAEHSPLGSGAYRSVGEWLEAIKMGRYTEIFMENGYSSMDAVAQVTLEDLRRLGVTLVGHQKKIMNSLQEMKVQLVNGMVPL
UniProt P30550, sequence (whole entry, looked up): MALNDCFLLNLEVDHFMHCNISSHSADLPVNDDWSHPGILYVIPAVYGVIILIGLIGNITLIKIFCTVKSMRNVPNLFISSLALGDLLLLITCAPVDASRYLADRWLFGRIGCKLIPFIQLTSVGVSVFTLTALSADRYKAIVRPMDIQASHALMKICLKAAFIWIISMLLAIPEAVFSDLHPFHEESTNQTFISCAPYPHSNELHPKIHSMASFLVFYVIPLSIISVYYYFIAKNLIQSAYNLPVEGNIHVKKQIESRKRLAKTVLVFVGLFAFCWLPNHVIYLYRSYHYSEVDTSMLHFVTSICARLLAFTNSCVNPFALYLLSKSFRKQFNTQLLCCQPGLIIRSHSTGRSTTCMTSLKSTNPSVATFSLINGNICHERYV
UniProt Q9UH17, sequence (whole entry, looked up): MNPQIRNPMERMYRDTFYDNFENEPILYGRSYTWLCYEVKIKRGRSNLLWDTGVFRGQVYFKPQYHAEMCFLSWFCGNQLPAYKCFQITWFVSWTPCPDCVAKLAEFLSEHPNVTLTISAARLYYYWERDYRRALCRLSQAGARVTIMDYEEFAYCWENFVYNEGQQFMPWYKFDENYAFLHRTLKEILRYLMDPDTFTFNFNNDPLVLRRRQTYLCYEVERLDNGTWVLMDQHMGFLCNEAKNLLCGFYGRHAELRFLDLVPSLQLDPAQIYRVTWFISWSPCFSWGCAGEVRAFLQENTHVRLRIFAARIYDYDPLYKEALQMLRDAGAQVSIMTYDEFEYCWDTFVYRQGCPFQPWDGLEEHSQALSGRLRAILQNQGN
UniProt A0A1C3KYI2, sequence (whole entry, looked up): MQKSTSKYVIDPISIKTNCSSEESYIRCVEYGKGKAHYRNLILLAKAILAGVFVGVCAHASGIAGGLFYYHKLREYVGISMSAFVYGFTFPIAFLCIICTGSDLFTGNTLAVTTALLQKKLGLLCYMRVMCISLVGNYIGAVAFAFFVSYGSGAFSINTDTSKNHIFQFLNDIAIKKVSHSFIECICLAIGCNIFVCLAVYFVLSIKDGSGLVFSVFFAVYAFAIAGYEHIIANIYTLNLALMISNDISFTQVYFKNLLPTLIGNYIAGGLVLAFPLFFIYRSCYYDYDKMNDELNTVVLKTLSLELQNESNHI
UniProt P97612, sequence (whole entry, looked up): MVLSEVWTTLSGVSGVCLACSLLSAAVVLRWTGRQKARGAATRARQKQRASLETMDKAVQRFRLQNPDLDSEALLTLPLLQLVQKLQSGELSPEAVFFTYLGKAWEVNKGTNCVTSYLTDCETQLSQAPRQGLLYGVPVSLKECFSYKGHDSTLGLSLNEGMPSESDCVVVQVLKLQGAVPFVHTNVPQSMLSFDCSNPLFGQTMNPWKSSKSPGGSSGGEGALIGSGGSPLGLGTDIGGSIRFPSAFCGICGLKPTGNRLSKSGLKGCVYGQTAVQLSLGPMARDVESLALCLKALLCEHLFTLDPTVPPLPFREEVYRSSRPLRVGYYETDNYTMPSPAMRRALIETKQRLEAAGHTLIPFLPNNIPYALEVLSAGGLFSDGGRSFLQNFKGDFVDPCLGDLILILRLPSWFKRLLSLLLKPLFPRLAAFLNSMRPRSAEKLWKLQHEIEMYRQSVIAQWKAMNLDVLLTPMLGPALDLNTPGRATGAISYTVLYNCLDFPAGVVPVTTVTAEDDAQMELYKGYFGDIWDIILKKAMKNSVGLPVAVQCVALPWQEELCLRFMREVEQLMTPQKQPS

SMILES	target	assay	system	conditions	IC50
CSCC[C@H](NC(=O)[C@H](Cc1ccccc1)NC(=O)[C@H](Cc1c[nH]cn1)NC(=O)CNC(=O)[C@@H](NC(=O)[C@H](C)NC(=O)[C@H](Cc1c[nH]c2ccccc12)NC(=O)[C@H](CC(C)C)NC(=O)[C@@H]1CCC(=O)N1)[C@@H](C)O)C(N)=O	GRPR (Homo sapiens, UniProt P30550)	ligand displacement in cells, radioligand	–	–	0.19 µM
O=C(/C=C(\O)C(F)(F)C(F)(F)F)c1cccnc1	Formate-nitrite transporter (FNT, Plasmodium malariae, UniProt A0A1C3KYI2)	–	–	–	0.21 ± 0.02 µM
Cc1ccc(CNC(=O)C(CCc2ccccc2)NC(=O)C(NC(=O)c2ccc(OCc3ccc(C(C)(C)C)cc3)cc2)C(C)O)cc1 (stereo not drawn)	Proteasome component C5/PSMB5	inhibitor	–	–	0.34 µM and ~0.5 µM
CN(C)S(=O)(=O)c1ccc(S(=O)(=O)N2CCC(n3c(=O)[nH]c4ccccc43)CC2)cc1	mfd, C-terminal domain (Escherichia coli, UniProt P30958)	ATPase activity	–	together with: ATP 0 to 0.3 mM	29 ± 0.1 µM
Oc1cc(O)c2c(c1)OC(c1ccc(O)c(O)c1)C(OC1(c3ccc(O)c(O)c3)Oc3cc(O)cc(O)c3C(O)C1O)C2 (stereo not drawn)	GPR35 (Homo sapiens, UniProt Q9HC97)	DMR desensitization	HT-29	no detergent, together with: zaprinast	14.1 µM
CC(C)C[C@H](NC(=O)CNC(=O)[C@@H](NC(=O)[C@H](Cc1ccc(OP(=O)(O)O)cc1)NC(=O)[C@@H](NC(=O)[C@H](C)NC(=O)[C@H](CC(=O)O)NC(=O)CNC(=O)CNC(=O)CNC(=O)[C@@H](N)CS)C(C)C)[C@@H](C)O)C(=O)N[C@@H](CC(N)=O)C(=O)N[C@H](C(=O)N[C@@H](CCCNC(=N)N)C(=O)N[C@@H](CC(N)=O)C(=O)N[C@@H](CCC(N)=O)C(=O)N[C@@H](CCC(=O)O)C(=O)N[C@H](C(=O)N[C@@H](Cc1ccc(OP(=O)(O)O)cc1)C(=O)N[C@@H](CCC(=O)O)C(=O)N[C@H](C(=O)N[C@@H](CC(C)C)C(=O)N[C@@H](CCCCN)C(=O)NCC(=O)O)[C@@H](C)O)[C@@H](C)O)[C@@H](C)O	CSK (Homo sapiens, UniProt P41240)	binding to immobilized ITAM, competition pull-down, Western blot	DG-75 cell lysate	upper limit of range	< 4 µM
N#Cc1c(C(F)(F)F)cc(-c2ccc(Cl)cc2)nc1SCC(=O)Nc1ccccc1	TAAR1 (Homo sapiens, UniProt Q96RJ0)	–	–	–	> 10 µM
CNC(=O)C1CCN(c2ccccc2NC(=O)c2ccc(-c3cc(O)ccc3C)c(OC)c2)CC1	EPHA5 (Homo sapiens, UniProt P54756)	target engagement in cells, BRET	–	–	0.138 µM
O=C(NC1CCC1)c1ccc2nc(-c3ccccc3)cn2c1	Protein ENL (MLLT1, Homo sapiens, UniProt Q03111)	–	–	–	0.087 µM
O=C(c1cccc(S(=O)(=O)N2CCc3ccccc3C2)c1)N1CCO[C@H](c2ccc(F)cc2)C1	CACNA1C (Homo sapiens, UniProt Q13936)	calcium signal, fluorescence	–	–	4.74 µM
O=C(CN1CCOc2ccccc2C1)c1ccc2[nH]c(=O)[nH]c2c1	DNA dC->dU-editing enzyme APOBEC-3B (Homo sapiens, UniProt Q9UH17)	enzyme activity, inhibitor	–	pH 5.5	700 µM
O=C(NCCCN1CCC(Cc2ccccc2)CC1)c1cc(Cl)cc(Cl)c1	SLC6A3 (Homo sapiens, UniProt Q01959)	transporter uptake, inhibitor, radiometric	–	–	> 10 µM
O=C(NCCCCn1ccc2ccc(F)cc21)OC(C(F)(F)F)C(F)(F)F	Faah (Rattus norvegicus, UniProt P97612)	enzyme activity, inhibitor	–	–	2.6 µM
CC(=O)Nc1ncc(CN2CC[C@H](Oc3cccc(F)n3)C[C@@H]2C)s1	Protein O-GlcNAcase (OGA, Homo sapiens, UniProt O60502)	enzyme activity, inhibitor	–	–	0.0019 µM
Cc1ccc(CNC(=O)[C@@H](NC(=O)[C@H](CCc2ccccc2)NC(=O)[C@H](CCc2ccccc2)N(C)Cc2cnccn2)C(C)C)cc1	Proteasome component C5/PSMB5	β5 activity, inhibitor	–	together with: Suc-LLVY-AMC, PA28α-activated	1.97 µM
